Measured values collected from several papers.
Numbered parts are unrelated; each lists some results of a single study. Substitutions count along the parent as printed.

Sample 1
Target: Interferon regulatory factor 7, full length, phosphomimetic (IRF7, Homo sapiens, UniProt Q92985, residues 1-503, S471D/S472D/S475D/S476D/S477D/S483D/S484D/S487D)
Technique: protein-binding microarray
Molecule type: double-stranded DNA, one strand shown
Matrix: in vitro
Tested at: 2200 nM top
Notes: 60-bp whole probe
With: salmon DNA 0.4 mg/ml
Reference: random background probes
Reading: higher = stronger binding
Constant ends, left off below: GCCTAGCAC … GTCTTGATTCGCTTGACGCTGCTG
Target sequence (chain): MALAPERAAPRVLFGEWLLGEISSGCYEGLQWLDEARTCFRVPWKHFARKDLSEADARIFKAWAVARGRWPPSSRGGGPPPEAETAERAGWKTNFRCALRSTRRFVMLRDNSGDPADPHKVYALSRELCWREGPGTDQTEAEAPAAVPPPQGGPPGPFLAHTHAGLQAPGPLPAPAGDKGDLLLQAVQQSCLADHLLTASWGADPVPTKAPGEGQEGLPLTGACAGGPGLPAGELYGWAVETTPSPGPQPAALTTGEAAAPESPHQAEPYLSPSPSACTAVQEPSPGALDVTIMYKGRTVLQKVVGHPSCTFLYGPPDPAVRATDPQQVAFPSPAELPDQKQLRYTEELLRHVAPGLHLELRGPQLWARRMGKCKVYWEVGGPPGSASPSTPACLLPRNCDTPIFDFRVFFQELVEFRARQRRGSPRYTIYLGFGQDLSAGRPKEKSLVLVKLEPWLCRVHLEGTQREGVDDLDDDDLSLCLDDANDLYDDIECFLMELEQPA
Under “fitted relative affinity”, `TCAGCTTTGCTTCCTGCACTGTGCTAG` is recorded as 0.9 z-score.
`TTTTTTTTTTTTTTTTTGGAGTGCTAG` — result for “fitted relative affinity”: 1.83 z-score.
`TCATTTCTCAAATGTTTTACTGTGCTA` — result for “fitted relative affinity”: 1.71 z-score.
For `TTAGATCTAAGACTGGATTAGTGCTAG`, “fitted relative affinity” read -0.501 z-score.
Under “fitted relative affinity”, `TCAGCTCCAGGTTCTCTGACTGTGCTA` is recorded as 0.202 z-score.
`ACAAGTTTCTCCTTTGTAAAGTGCTAG`: “fitted relative affinity” 2.72 z-score.
For `GACGGACTGGGGATTGGGGACGTGCTA`, “fitted relative affinity” read -0.396 z-score.
Under “fitted relative affinity”, `TTAGGCATCGGGTATCGGTTAGTGCTA` is recorded as -0.108 z-score.
`TTAGGACCGGACTTTCGGTTAGTGCTA`: “fitted relative affinity” 4.9 z-score.
For `GACGATATCAGCTTCGAGACGTGCTAG`, “fitted relative affinity” read 0.339 z-score.
Under “fitted relative affinity”, `GACGGATTCGACTATCGGGACGTGCTA` is recorded as 0.489 z-score.
Under “fitted relative affinity”, `TGAGAACTGGGGTTTCGATTAGTGCTA` is recorded as 2.05 z-score.
`TCATTCTCCTATTTAAGACTGTGCTAG`: “fitted relative affinity” 2.18 z-score.
`TCAAAGATCATTCTCACACTGTGCTAG` — result for “fitted relative affinity”: 0.32 z-score.
For `TTACGACTGGGGTATCGGTTAGTGCTA`, “fitted relative affinity” read 0.633 z-score.
`GACGATATCGAGTTTCGAGACGTGCTA`: “fitted relative affinity” 2.15 z-score.
Under “fitted relative affinity”, `GACGGTTCCCATTTCCTGACGTGCTAG` is recorded as 2.43 z-score.
`TCAAAAATCAAGTCTGGGACTGTGCTA` — result for “fitted relative affinity”: -0.866 z-score.
For `TCAAAAATCTCAATGGGACTGTGCTAG`, “fitted relative affinity” read -0.72 z-score.
Under “fitted relative affinity”, `TTAGGTTTCGGGTTTCGGTCAGTGCTA` is recorded as 9.61 z-score.
`TTAGATAGCAGTATCGATTAGTGCTAG` — result for “fitted relative affinity”: -0.268 z-score.
`CAAACACTAGTTTTCATTTTGTGCTAG`: “fitted relative affinity” 3.37 z-score.
`GGCGGTTTCCTTTCCCTGACGTGCTAG` — result for “fitted relative affinity”: 3.92 z-score.
`TTAGGACTGGGTTGCGGTTAGTGCTAG`: “fitted relative affinity” -0.0344 z-score.
`TTAGAACTGGGGTATCGGTTAGTGCTA`: “fitted relative affinity” 0.00184 z-score.

Sample 2
Target: Histone acetyltransferase KAT6A, winged helix 2, GST fusion (KAT6A, Homo sapiens, UniProt Q92794, residues 85-181)
Technique: protein binding microarray
Molecule type: double-stranded DNA, one strand shown
Matrix: in vitro
Tested at: not given
Notes: 8-mer, flanks averaged, mean of 2 arrays, mostly near background
Reference: not given
Reading: higher = stronger binding
Residues (chain): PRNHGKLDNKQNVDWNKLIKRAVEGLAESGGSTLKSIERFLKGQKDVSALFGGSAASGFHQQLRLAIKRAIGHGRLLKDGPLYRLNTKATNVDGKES
The E-score of `CACCTCTA` is reported as -0.0133.
With `ACTTTACA` the E-score was -0.124.
With `ACTGTAGC` the E-score was -0.226.
`AATCGGGA` gave an E-score of 0.0661.
With `AAAGACAT` the E-score was -0.23.
The E-score of `AATCCATG` is reported as 0.158.
`CATCTACA` gave an E-score of -0.152.
With `CCTTAAGG` the E-score was 0.0523.
For `GGGCTGCA`, the E-score was 0.0516.
With `AACTGAGC` the E-score was 0.0802.
For `ACTAGGAC`, the E-score was -0.154.
For `GGCAAAGA`, the E-score was 0.107.
`AGCCTCCT` has an E-score of 0.026.
`CACAACAG` gave an E-score of -0.152.
`CCGCCGTC` has an E-score of 0.114.
`CGAATAAG` has an E-score of -0.0389.
The E-score of `GATTCCAA` is reported as 0.0881.
`CAGGAATA` has an E-score of -0.119.
The E-score of `GCGGTGGA` is reported as 0.219.
For `AACACGCA`, the E-score was -0.0573.
`CGACGTAC` gave an E-score of 0.0487.
The E-score of `CGACCTGA` is reported as 0.13.
The E-score of `AGCTGCCA` is reported as 0.0739.
`CACATATA` gave an E-score of -0.103.
`CCCACAAG` has an E-score of 0.194.

Sample 3
Target: Sal-like protein 4, full length isoform A (SALL4, Homo sapiens, UniProt Q9UJQ4, residues 1-1053)
Chain of UniProt Q9UJQ4 (whole entry, looked up): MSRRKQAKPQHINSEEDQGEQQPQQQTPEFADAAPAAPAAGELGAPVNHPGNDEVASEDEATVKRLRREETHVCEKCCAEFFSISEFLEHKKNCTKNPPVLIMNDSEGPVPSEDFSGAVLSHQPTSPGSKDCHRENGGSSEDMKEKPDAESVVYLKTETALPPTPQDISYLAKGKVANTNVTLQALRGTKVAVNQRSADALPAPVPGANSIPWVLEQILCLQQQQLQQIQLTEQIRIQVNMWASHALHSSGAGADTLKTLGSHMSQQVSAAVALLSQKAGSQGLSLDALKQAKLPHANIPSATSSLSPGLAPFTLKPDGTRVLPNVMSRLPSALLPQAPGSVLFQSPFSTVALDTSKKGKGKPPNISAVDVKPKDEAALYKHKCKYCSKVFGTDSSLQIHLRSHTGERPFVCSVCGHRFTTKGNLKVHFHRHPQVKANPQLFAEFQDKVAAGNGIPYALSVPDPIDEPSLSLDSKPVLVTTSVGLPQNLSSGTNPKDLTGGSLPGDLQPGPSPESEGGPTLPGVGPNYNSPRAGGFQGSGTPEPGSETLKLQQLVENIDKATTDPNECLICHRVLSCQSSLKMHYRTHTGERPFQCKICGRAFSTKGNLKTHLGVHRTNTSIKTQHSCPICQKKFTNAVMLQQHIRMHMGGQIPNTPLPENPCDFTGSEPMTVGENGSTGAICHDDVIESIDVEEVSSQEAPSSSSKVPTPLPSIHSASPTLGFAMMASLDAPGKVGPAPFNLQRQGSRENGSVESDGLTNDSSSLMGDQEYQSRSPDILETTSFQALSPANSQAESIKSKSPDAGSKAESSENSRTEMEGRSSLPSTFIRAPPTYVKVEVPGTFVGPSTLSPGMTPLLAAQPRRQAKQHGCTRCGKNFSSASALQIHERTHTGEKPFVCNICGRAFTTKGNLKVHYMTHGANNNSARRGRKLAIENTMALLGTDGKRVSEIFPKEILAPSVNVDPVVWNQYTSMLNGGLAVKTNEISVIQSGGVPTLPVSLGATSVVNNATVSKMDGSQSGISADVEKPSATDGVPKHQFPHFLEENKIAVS
Technique: universal PBM
Molecule type: double-stranded DNA, one strand shown
Matrix: in vitro
Tested at: 600 nM
Notes: 8-mer, flanks averaged, mean of replicates
Reading: higher = stronger binding
`TCGATCGA` has an E-score of 0.051.
`ATCTCCAC` gave an E-score of -0.197.
For `ACCCCAGT`, the E-score was -0.223.
For `ATGTACTC`, the E-score was 0.0757.
With `CGACGCCC` the E-score was -0.234.
The E-score of `ACGAAGAC` is reported as -0.235.
`AAGGACGT` has an E-score of 0.149.
For `GTTACGTA`, the E-score was -0.0231.
The E-score of `ATTTCCCC` is reported as 0.0576.
For `CCGATCTC`, the E-score was -0.27.
`ATATTTTG` has an E-score of 0.427.
`CCTAAAAA` has an E-score of 0.106.
The E-score of `CAACGGTA` is reported as -0.17.
`CGACCATA` has an E-score of 0.206.
With `AATCGGGT` the E-score was 0.0327.
`CGTACAAA` has an E-score of 0.125.
`CTTGCCCA` gave an E-score of -0.0744.
With `CGAAGGTA` the E-score was 0.0636.
`AGCAGAAC` gave an E-score of 0.021.
`AAATCGCA` has an E-score of 0.197.
`CTCATCCC` has an E-score of -0.211.
`GCCCCATA` has an E-score of -0.0911.
With `GAATGTAA` the E-score was 0.267.
`AATCAGAG` gave an E-score of 0.0642.
`AAAGCAGA` has an E-score of 0.0558.

Sample 4
Target: Ras GTPase-activating protein-binding protein 1, full length (G3BP1, Homo sapiens, UniProt Q13283)
Chain of UniProt Q13283 (whole entry, looked up): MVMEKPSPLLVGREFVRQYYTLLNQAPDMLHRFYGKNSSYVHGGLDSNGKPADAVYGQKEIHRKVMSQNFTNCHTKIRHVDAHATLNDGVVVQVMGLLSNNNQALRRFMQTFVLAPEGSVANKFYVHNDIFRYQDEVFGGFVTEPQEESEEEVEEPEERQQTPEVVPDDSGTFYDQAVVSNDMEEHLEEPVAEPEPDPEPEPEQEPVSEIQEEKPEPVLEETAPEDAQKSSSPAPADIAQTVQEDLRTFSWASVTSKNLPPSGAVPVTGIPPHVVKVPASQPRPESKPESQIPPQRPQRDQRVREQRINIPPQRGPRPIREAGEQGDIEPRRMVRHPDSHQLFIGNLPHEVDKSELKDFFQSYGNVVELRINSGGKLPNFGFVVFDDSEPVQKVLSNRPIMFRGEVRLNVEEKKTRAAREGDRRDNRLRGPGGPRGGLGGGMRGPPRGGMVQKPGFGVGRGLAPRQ
Technique: RNA Bind-n-Seq
Molecule type: RNA
Matrix: in vitro
Tested at: 200 nM
Notes: whole 134-nt RNA, ends assumed
With: 150 mM LiCl
Reference: input library
Reading: higher = stronger binding
All molecules: 7-deaza-guanosine replaces G
Constant ends, left off below: GGGAGUUCUACAGUCCGACGAUC … UGGAAUUCUCGGGUGUCAAGG
`AAGUCCUGUGCUACACAUCGUAUGUACCGAAUCGGGGAGGGGUUUGGGGUUUGGGGAAAGUAUUAUGUUACGCCGUUCGGAUCUGCACUU` has a log2 enrichment of -0.248.
`UGGGAGGUGGAUUUUGUUUAUUUUUUUAGCUCAUUUCCAGGGGUGGGAAUUUUUUUUUAAUAUGUGUCAUGAAUAAAGUUGUUUUUAAAA` gave a log2 enrichment of 0.143.
`CUCAAGUCCUGUGCUACACAUCGUAUGUACCGAAUCGUGUGUGUGUGUGUGUGUAAAGUAUUAUGUUACGCCGUUCGGAUCUGCACUUCC` has a log2 enrichment of -0.531.
For `CCUGUGCUACACAUCGUAUGUACCGAAUCGGGAAAAAAAGGGAAAAAAAGGAAAAAAAGGGAAAGUAUUAUGUUACGCCGUUCGGAUCUG`, the log2 enrichment was 0.138.
With `UAACUUUAGAGGAGGAUCUGAUGGAUAUGCCAGUGGACGUGGAUUUGGGGAUGGCUAUAAUGGGUAUGGAGGAGGACCUGGAGGUGGCAA` the log2 enrichment was -0.179.
`UCAAGUCCUGUGCUACACAUCGUAUGUACCGAAUCGGUUUGGAAAGGAAAAAGGAAAGUAUUAUGUUACGCCGUUCGGAUCUGCACUUCC` has a log2 enrichment of -0.377.
`UGCGGGCCGAGAAUCGGGAGCUGGGCAAACGCGUACAGGCACUGCAGGAGGAGAGUCGCUACCUACGGGCAGUCUUAGCCAACGAGACUG` has a log2 enrichment of -0.381.
The log2 enrichment of `CAAGUCCUGUGCUACACAUCGUAUGUACCGAAUCGGGGCCCGGGGCCCGGGCCCGGAAAGUAUUAUGUUACGCCGUUCGGAUCUGCACUU` is reported as -0.969.
`AGUCCUGUGCUACACAUCGUAUGUACCGAAUCAAACCCCCAAACCCAAAUUUUUAAAAAAGUAUUAUGUUACGCCGUUCGGAUCUGCACU` has a log2 enrichment of 1.22.
For `CAAGUCCUGUGCUACACAUCGUAUGUACCGAAUCGGGUUUGGGAAAGGGUUUGGGAAAGUAUUAUGUUACGCCGUUCGGAUCUGCACUUC`, the log2 enrichment was -0.921.
`GCAGGUAGUAAAAACAAAUGGAAAUGCUUCGGAUAGUGGCAGGGGUGGGGGUUGCUAAGGAAAGGGUGGGAUGGGAGUGGGUAAAGAGUU` gave a log2 enrichment of 0.0677.

Sample 5
Molecule: GAPLKKLFTSTGL
Effect on: peptide binding
Molecule type: peptide
Tested at: concentration not given
Reading: direction not given
The binding score was 1.16 (Saccharomyces cerevisiae; yeast competitive growth sequencing; cyclin E2-Cln2 fusion; combined libraries).
It gave 2.17 for binding score (Saccharomyces cerevisiae; yeast competitive growth sequencing; cyclin F-Cln2 fusion; combined libraries, Cln2-subtracted).
It gave 0.525 for binding score (Saccharomyces cerevisiae; yeast competitive growth sequencing; cyclin-Cln2 fusion strain; library 1).
It gave 1 for binding score (Saccharomyces cerevisiae; yeast competitive growth sequencing; cyclin F-Cln2 fusion; library 1, Cln2-subtracted).
The binding score was 1.71 (human cyclin A2; competitive growth sequencing; Saccharomyces cerevisiae, cyclin A2-Cln2 fusion strain; combined libraries; reference: unfused Cln2 strain).
It gave 0.661 for binding score (human cyclin A2; competitive growth sequencing; Saccharomyces cerevisiae, cyclin A2-Cln2 fusion strain; mutational scanning library 1; reference: unfused Cln2 strain).

Sample 6
Target: ABI1, truncated, D143A, DHFR fusion (Arabidopsis thaliana)
Technique: DHFR PCA, deep sequencing
Matrix: yeast
Notes: methotrexate growth selection, single substitutions
With: (+)-ABA 200 µM
Reference: wild-type fitted maximum
Reading: higher = stronger binding
Starting sequence: PYL1, truncated, DHFR fusion (Arabidopsis thaliana); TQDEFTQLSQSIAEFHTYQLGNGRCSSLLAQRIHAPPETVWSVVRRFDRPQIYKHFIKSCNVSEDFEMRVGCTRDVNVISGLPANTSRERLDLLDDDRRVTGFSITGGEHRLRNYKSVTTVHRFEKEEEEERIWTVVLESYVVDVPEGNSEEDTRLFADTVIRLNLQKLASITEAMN
For `G102P`, “relative binding score” read -2.44%.
Under “relative binding score”, `Y115R` is recorded as -11.6%.
For `F103S`, “relative binding score” read 2.33%.
`D144E` — result for “relative binding score”: 85.5%.
`D3M` — result for “relative binding score”: 103%.
Under “relative binding score”, `P83D` is recorded as 78.1%.
`N165M` — result for “relative binding score”: 2.99%.
`S80I` — result for “relative binding score”: 23.9%.
Under “relative binding score”, `E131T` is recorded as 107%.
`T106E`: “relative binding score” 94.2%.
Under “relative binding score”, `T173W` is recorded as 65.4%.
Under “relative binding score”, `R32K` is recorded as 102%.
Under “relative binding score”, `I162V` is recorded as 104%.
`F15H`: “relative binding score” 96.8%.
For `E131D`, “relative binding score” read 114%.

Repeated from above (sample 1):
Under “fitted relative affinity”, `TGAGAACTGGGGTTTCGATTAGTGCTA` is recorded as 2.05 z-score.
`TCATTTCTCAAATGTTTTACTGTGCTA` — result for “fitted relative affinity”: 1.71 z-score.
`TTTTTTTTTTTTTTTTTGGAGTGCTAG` — result for “fitted relative affinity”: 1.83 z-score.
`ACAAGTTTCTCCTTTGTAAAGTGCTAG`: “fitted relative affinity” 2.72 z-score.
Under “fitted relative affinity”, `TTAGGCATCGGGTATCGGTTAGTGCTA` is recorded as -0.108 z-score.
`TTAGAACTGGGGTATCGGTTAGTGCTA`: “fitted relative affinity” 0.00184 z-score.
`CAAACACTAGTTTTCATTTTGTGCTAG`: “fitted relative affinity” 3.37 z-score.
